Published values of several laboratories.
± marks the error that the study gave.
Organism: Plasmodium falciparum

SMILES | test | system | setting | IC50
Cc1[nH]c(/C=C2\N=C(c3ccc[nH]3)C=C2OCc2ccccc2)cc1Cc1ccc(Cl)cc1 | parasite growth, SYBR Green fluorescence | Tm90-C2B (atovaquone-resistant), asexual blood stage | 72 h | 0.0118 µM
CCN(CC)CCCC(C)Nc1ccnc2cc(Cl)ccc12 (stereo not drawn) |  | 3D7 | 48 h | 0.0138 ± 0.0056 µM
CCN(CC)CCCC(C)Nc1ccnc2cc(Cl)ccc12 (stereo not drawn) | parasite growth, SYBR Green I | 3D7 |  | 0.06538 ± 1e-05 µM
N=C(CC(O)c1nc2ccccc2c2ccc(Br)cc12)Nc1ccc(F)cc1 (stereo not drawn) | parasite growth, HRP2-ELISA | clinical isolates from Gabon | ex vivo, median | 0.046 µM
CC1CCc2c([nH]c3ccccc23)C2(N1)C(=O)Nc1ccc(Cl)cc12 (stereo not drawn) | parasite growth, [3H]hypoxanthine incorporation | NF54 |  | 0.291 µM
CC1=C(Cc2cn(CCN3CCOCC3)nn2)C(=O)c2ccccc2C1=O | parasite growth, [3H]hypoxanthine incorporation | NF54 | 72 h | 5.95 µM
Cc1[nH]c(/C=C2\N=C(c3ccc[nH]3)C3=C2OCCO3)cc1Cc1ccc(Cl)cc1 | parasite growth, SYBR Green fluorescence | Tm90-C2B (atovaquone-resistant), asexual blood stage | 72 h | 0.0148 µM
O=C(CCCCCONC(=O)c1nc(-c2cccnc2)cs1)NO | asexual blood-stage growth, [3H]hypoxanthine uptake | 3D7 | 72 h | 0.61 µM
CC1=C(Cn2cncn2)C(=O)c2ccccc2C1=O | parasite growth, [3H]hypoxanthine incorporation | NF54 | 72 h | 7.48 µM
CCC1=C(CC)/C(=C/NC23CC4CC(CC(C4)C2)C3)N=C1c1cc2ccccc2[nH]1 | parasite growth, SYBR Green I fluorescence | D6, chloroquine-sensitive | 72 h | 0.0702 µM
CC1=C(Cn2cc(CN)nn2)C(=O)c2ccccc2C1=O | parasite growth, [3H]hypoxanthine incorporation | NF54 | 72 h | > 10 µM
COc1ncnc(NS(=O)(=O)c2ccc(N)cc2)c1OC | cell growth | erythrocytes, Dd2 | low-folate medium | 517 ± 206 µM
COc1cc(CO)c(-c2ccc3c(c2O)[C@@H](C)N[C@H](C)C3)c2cccc(O)c12 | asexual parasite proliferation, SYBR Green I fluorescence | K1 |  | 0.055 ± 0.011 µM
CCC1=C(CC)/C(=C/c2cc(-c3ccc(OC(F)(F)F)cc3)c(C)[nH]2)N=C1c1ccc[nH]1 | parasite growth, SYBR Green fluorescence | Tm90-C2B (atovaquone-resistant), asexual blood stage | 72 h | > 2.5 µM
CCN(CC)CCCC(C)Nc1ccnc2cc(Cl)ccc12 (stereo not drawn) | parasite growth | RF12 |  | 0.21 µM
O=C(Nc1ccccc1-c1nc2c(C(=O)O)cccc2o1)c1ccccc1 | parasite growth, inhibitor, SYBR Green I | 3D7 |  | 97.3 µM
CCC1=C(CC)/C(=C/c2cc(Cc3ccc(Cl)cc3)c(C)[nH]2)N=C1c1ccc[nH]1 | parasite growth, SYBR Green fluorescence | Dd2 (multidrug-resistant), asexual blood stage | 72 h | 0.262 µM
Cc1onc(-c2ccccc2)c1-c1ccc(S(N)(=O)=O)cc1 | parasite growth, inhibitor, SYBR Green I | 3D7 |  | 64 µM
CCC1=C(CC)/C(=C/c2[nH]c(Cc3ccc(Cl)cc3)cc2Cc2ccc(Cl)cc2)N=C1c1ccc[nH]1 | parasite growth, SYBR Green fluorescence | Tm90-C2B (atovaquone-resistant), asexual blood stage | 72 h | 0.153 µM
N=C(CC(O)c1nc2ccccc2c2ccc(Cl)cc12)Nc1ccc(F)cc1 (stereo not drawn) | parasite growth, HRP2 ELISA | clinical isolates from Gabon | ex vivo, range over isolates | 0.0002 to 0.111 µM
COc1nc2ccc(Br)cc2cc1[C@@H](c1ccccc1)[C@@](O)(CCN(C)C)c1cccc2ccccc12 | parasite growth, inhibitor, SYBR Green I | 3D7 |  | 1.22 µM
O=C1C(O)=C([C@H]2CC[C@H](c3ccc(Cl)cc3)CC2)C(=O)c2ccccc21 | growth | 3D7 | 48 h | 0.004 ± 0.001 µM
CCCCCCNCC(O)c1cc(Cl)cc2c1-c1ccc(Cl)cc1C2 (racemic) |  | 3D7 | 48 h | 0.0041 ± 0.0001 µM
CC1=C(Cn2cc(C(C)(C)O)nn2)C(=O)c2ccccc2C1=O | parasite growth, [3H]hypoxanthine incorporation | NF54 | 72 h | > 10 µM

SMILES | test | system | setting | IC50
O=C(O)c1ccc(-n2nc(-c3ccccc3O)nc2-c2ccccc2O)cc1 | parasite growth, inhibitor, SYBR Green I | 3D7 |  | 38.4 µM
CCCCNC[C@H](O)c1cc(Cl)cc2c1-c1ccc(Cl)cc1C2 |  | 3D7 | 48 h | 0.0236 ± 0.0024 µM
CC1=C(Cc2cn(CCO)nn2)C(=O)c2ccccc2C1=O | parasite growth, [3H]hypoxanthine incorporation | NF54 | 72 h | 1.85 µM
COc1ccc(C[C@H](NC(=O)[C@H](C)NC(=O)CN2CCOCC2)C(=O)N[C@@H](Cc2ccccc2)C(=O)C2(C)CO2)cc1 (stereo in doubt) | parasite growth | Cam WT, artemisinin-sensitive | 72 h, ring stage | 0.0446 ± 0.0059 µM
COc1cc(C)c(-c2ccc(O)c3c2C[C@@H](C)N[C@@H]3C)c2cccc(O)c12 (single isomer, unassigned) | asexual parasite proliferation, SYBR Green I fluorescence | 7G8 |  | 0.0217 ± 0.005 µM
O[C@@H](CN[C@@H](COCC1CC1)Cc1ccccc1)c1cc(Cl)cc2c1-c1ccc(Cl)cc1C2 |  | 3D7 | 48 h | 0.0038 ± 0.0002 µM
CCN(CC)CCCC(C)Nc1ccnc2cc(Cl)ccc12 (stereo not drawn) | asexual parasite proliferation, SYBR Green I fluorescence | 7G8 |  | 0.0411 ± 0.0057 µM
CC(=O)O[C@H](C)C(=O)CCCCCCC(=O)Nc1ccccc1 | [3H]-hypoxanthine incorporation |  |  | 40.1 µM
CCCCCNC[C@@H](O)c1cc(Cl)cc2c1-c1ccc(Cl)cc1C2 |  | 3D7 | 48 h | 0.0052 ± 0.0012 µM
Cl.Oc1cccc2c1[nH]c1c(C3=CC4(O)CC/C=C\CCCCN5CCC3C3(CC6/C=C\CCCCN6C43)C5)nccc12 (single isomer, unassigned; (+)) | parasite LDH | D6, chloroquine-sensitive | 72 h | 0.027 ± 0.007 µg/mL
N=C(N)NCCCCC(=O)Nc1cc(C(F)(F)F)cc(NC(=O)c2cc(C(=O)Nc3cc(C(F)(F)F)cc(NC(=O)CCCCNC(=N)N)c3O[C@@H]3CCNC3)ncn2)c1O[C@@H]1CCNC1 | parasite growth, stage-specific treatment |  | 12 h, early to late schizont stage | 4.4 ± 0.24 µM
Nc1ccc(S(=O)(=O)c2ccc(N)cc2)cc1 | cell growth | erythrocytes, Dd2 | low-folate medium | 65.2 ± 6.07 µM
Cc1ccccc1C(=O)N1NC(=Nc2ccccc2)SC1(C)C | parasite growth, inhibitor, SYBR Green I | 3D7 |  | 47.9 µM
CCCCCCCNC[C@@H](O)c1cc(Cl)cc2c1-c1ccc(Cl)cc1C2 |  | 3D7 | 48 h | 0.0015 ± 0.0003 µM
Cc1[nH]c(/C=C2\N=C(c3ccc[nH]3)C3=C2OCCO3)cc1Cc1ccc(OC(F)(F)F)cc1 | parasite growth, SYBR Green fluorescence | Dd2 (multidrug-resistant), asexual blood stage | 72 h | 0.0167 µM
CC1=C(Cn2cc(CN3CCN(C(=O)OC(C)(C)C)CC3)nn2)C(=O)c2ccccc2C1=O | parasite growth, [3H]hypoxanthine incorporation | NF54 | 72 h | 1.46 µM
CCc1nc(N)nc(N)c1-c1ccc(Cl)cc1 | cell growth | erythrocytes, HB3 | low-folate medium | 1.06 ± 0.65 µM
O[C@H](CNCCCC(F)(F)F)c1cc(Cl)cc2c1-c1ccc(Cl)cc1C2 |  | 3D7 | 48 h | 0.0083 ± 0.0001 µM
CC1=C(Cc2cn(CCN3CCNCC3)nn2)C(=O)c2ccccc2C1=O | parasite growth, [3H]-hypoxanthine incorporation | NF54 | 72 h | inactive
COC1=C(OC)/C(=C/c2cc(-c3ccc(OC(F)(F)F)cc3)c(C)[nH]2)N=C1c1ccc[nH]1 | parasite growth, SYBR Green fluorescence | Tm90-C2B (atovaquone-resistant), asexual blood stage | 72 h | 0.427 µM
NC(N)=Nc1ccc(-c2ccc(-c3ccc(N=C(N)N)c(Cl)c3)o2)cc1Cl | parasite growth, stage-specific treatment |  | 12 h, early to late schizont stage | 0.57 ± 0.3 µM
COC1=CC(c2ccc[nH]2)=N/C1=C\c1cc(Cc2ccc(OC)cc2)c(-c2ccc(OC)cc2)[nH]1 | parasite growth, SYBR Green fluorescence | Dd2 (multidrug-resistant), asexual blood stage | 72 h | 0.109 µM
O=C(CC1NCCCC1O)Cn1cnc2cc(Br)c(Cl)cc2c1=O (stereo not drawn) | parasite growth | conditional knockdown control line | 120 h, added: 3 nM anhydrotetracycline | 0.0004 µM
Oc1cccc(C(Nc2nccs2)c2ccc3cccnc3c2O)c1 (stereo not drawn) | parasite growth, inhibitor, SYBR Green I | 3D7 |  | 0.388 µM
